Published values of several laboratories.
Each line is one published result; not all experiments were run side by side.

SMILES | assay | test system | setting | Kd [µM]
CC(C)C[C@H](NC(=O)CN)C(=O)NCC(=O)N[C@@H](CCCCN)C(=O)N[C@@H](CC(C)C)C(=O)N[C@@H](CC(C)C)C(=O)N[C@@H](Cc1c[nH]cn1)C(=O)N[C@@H](C)C(=O)N[C@@H](C)C(=O)N[C@@H](CCCCN)C(=O)N[C@@H](CCCCN)C(=O)N[C@@H](CC(C)C)C(=O)NCC(=O)N[C@@H](CCCCN)C(=O)N[C@@H](C)C(=O)N[C@@H](Cc1c[nH]c2ccccc12)C(=O)N[C@@H](CC(C)C)C(=O)NCC(=O)N[C@@H](CCC(=O)O)C(=O)N[C@@H](CC(C)C)C(=O)N[C@@H](CC(C)C)C(=O)N[C@@H](C)C(=O)N[C@@H](C)C(=O)O | membrane binding, stopped-flow FRET | POPC vesicles | room temperature, extrapolated from POPC/POPG | 1100
CC[C@@](C)(NC)C(=O)NC(C)(C)C(=O)NC(C)(C)C(=O)NC(C)(C)C(=O)NCC(=O)NC(C)(C)C(=O)N1CCC[C@@H]1C(=O)N[C@@H](Cc1c[nH]c2ccccc12)C(=O)NC(C)(C)C(=O)N1C[C@H](O)C[C@@H]1C(=O)N[C@@H](C)C(=O)NC(C)(C)C(=O)NCCCC(=O)N[C@@H](CC(C)C)C(=O)N[C@](C)(CC)C(=O)NC(C)(C)C(=O)N[C@](C)(CC)C(=O)N[C@H](CO)Cc1ccccc1 | binding, ITC | 10 to 30% methanol | 2 °C, with: POPG | 0.312
CC[C@H](C)[C@H](N)C(=O)N[C@H](C(=O)NCC(=O)N[C@H](C(=O)N[C@H](C(=O)N[C@@H](CC(=O)O)C(=O)N[C@@H](CO)C(=O)N[C@@H](CC(C)C)C(=O)N[C@H](C(=O)N[C@@H](CCCCN)C(=O)N[C@@H](Cc1c[nH]c2ccccc12)C(=O)N[C@H](C(=O)N[C@H](C(=O)N[C@@H](CC(=O)O)C(=O)N[C@H](C(=O)N[C@H](C(=O)N[C@@H](CC(N)=O)C(=O)N[C@@H](CCCCN)C(=O)N[C@@H](Cc1ccccc1)C(=O)N[C@H](C(=O)N[C@@H](CCCCN)C(=O)N[C@@H](CCCCN)C(=O)O)[C@@H](C)O)C(C)C)[C@@H](C)O)[C@@H](C)CC)[C@@H](C)CC)C(C)C)[C@@H](C)CC)[C@@H](C)O)[C@@H](C)CC | lipid vesicle binding | POPC vesicles | pH 7.5 | 15
CC(C)C[C@H](NC=O)C(=O)N[C@@H](C)C(=O)N[C@@H](C)C(=O)N[C@@H](CC(=O)O)C(=O)N[C@@H](CC(C)C)C(=O)N[C@@H](CC(C)C)C(=O)N[C@@H](C)C(=O)N[C@@H](C)C(=O)N[C@@H](CC(C)C)C(=O)NCC(=O)N[C@@H](CC(=O)O)C(=O)N[C@@H](CC(C)C)C(=O)N[C@@H](C)C(=O)N[C@@H](CCCCN)C(=O)N[C@@H](Cc1c[nH]c2ccccc12)C(=O)N[C@@H](CC(C)C)C(=O)N[C@@H](CC(C)C)C(=O)N[C@@H](CC(=O)O)C(=O)N[C@@H](C)C(=O)N[C@@H](CC(C)C)C(=O)N[C@@H](C)C(=O)N[C@@H](CCCCN)C(=O)N[C@@H](C)C(=O)N[C@@H](C)C(=O)N[C@@H](CCCCN)C(=O)N[C@@H](CCCCN)C(=O)O (racemic) | membrane binding, stopped-flow FRET | POPC vesicles | pH 7.5, room temperature | 200
CC[C@H](C)[C@H](NC(=O)[C@H](CC(N)=O)NC(=O)[C@H](CCCCN)NC(=O)[C@@H](NC(=O)[C@@H](N)CC(C)C)[C@@H](C)CC)C(=O)NCC(=O)N[C@H](C(=O)N[C@H](C(=O)N[C@H](C(=O)N[C@@H](CO)C(=O)N[C@@H](CCCCN)C(=O)N[C@H](C(=O)N[C@H](C(=O)N[C@@H](CCCCN)C(=O)N[C@H](C(=O)N[C@H](C(=O)N[C@@H](Cc1c[nH]c2ccccc12)C(=O)N[C@@H](CCCCN)C(=O)N[C@@H](Cc1ccccc1)C(=O)N[C@H](C(=O)N[C@@H](CC(=O)O)C(=O)N[C@@H](CC(=O)O)C(=O)O)[C@@H](C)O)C(C)C)[C@@H](C)O)[C@@H](C)CC)[C@@H](C)CC)C(C)C)[C@@H](C)CC)[C@@H](C)O | lipid vesicle binding | POPC vesicles | pH 7.5 | 400
CC(C)[C@H](N)C(=O)N[C@@H](Cc1ccc(O)cc1)C(=O)N[C@@H](CCCCN)C(=O)N[C@H](C(=O)N[C@@H](CCCCN)C(=O)N[C@H](C(=O)N[C@@H](CCCCN)C(=O)N[C@H](C(=O)N[C@@H](CCCCN)C(=O)N[C@H](C(=O)N[C@@H](CCCCN)C(=O)N[C@H](C(=O)N[C@@H](CCCCN)C(=O)N[C@H](C(=O)N[C@@H](CCCCN)C(=O)N[C@H](C(=O)N[C@@H](CCCCN)C(=O)N[C@H](C(=O)O)[C@@H](C)O)C(C)C)[C@@H](C)O)C(C)C)[C@@H](C)O)C(C)C)[C@@H](C)O)C(C)C | binding, SPR Langmuir fit | rVλ6Wil fibrils | pH 7.4 | 0.01
CC[C@H](C)[C@H](N)C(=O)N[C@H](C(=O)N[C@@H](CO)C(=O)N[C@H](C(=O)N[C@H](C(=O)NCC(=O)N[C@@H](CC(=O)O)C(=O)N[C@@H](CC(C)C)C(=O)N[C@H](C(=O)N[C@@H](CCCCN)C(=O)N[C@@H](Cc1c[nH]c2ccccc12)C(=O)N[C@H](C(=O)N[C@H](C(=O)N[C@@H](CC(=O)O)C(=O)N[C@H](C(=O)N[C@H](C(=O)N[C@@H](CC(N)=O)C(=O)N[C@@H](CCCCN)C(=O)N[C@@H](Cc1ccccc1)C(=O)N[C@H](C(=O)N[C@@H](CCCCN)C(=O)N[C@@H](CCCCN)C(=O)O)[C@@H](C)O)C(C)C)[C@@H](C)O)[C@@H](C)CC)[C@@H](C)CC)C(C)C)[C@@H](C)CC)[C@@H](C)O)[C@@H](C)CC | lipid vesicle binding | POPC vesicles | pH 7.5 | 4.6
CC(C)C[C@H](NC(=O)CNC(=O)[C@H](CCC(=O)O)NC(=O)[C@H](CCCCN)NC(=O)[C@H](CC(C)C)NC(=O)[C@H](C)NC(=O)[C@H](C)NC(=O)CNC(=O)[C@H](C)NC(=O)[C@H](CCCCN)NC(=O)[C@H](CCC(=O)O)NC(=O)[C@H](CC(C)C)NC(=O)[C@H](CCCCN)NC(=O)[C@H](CCCCN)NC(=O)[C@H](CC(C)C)NC(=O)[C@H](CC(C)C)NC(=O)[C@H](CCCCN)NC(=O)[C@H](Cc1c[nH]c2ccccc12)NC(=O)[C@@H](N)CCCCN)C(=O)N[C@@H](CC(C)C)C(=O)N[C@@H](CCCCN)C(=O)N[C@@H](C)C(=O)NCC(=O)N1CCC[C@H]1C(=O)N[C@@H](C)C(=O)N[C@@H](CC(C)C)C(=O)N[C@@H](C)C(=O)N[C@@H](CC(C)C)C(=O)N[C@@H](CC(C)C)C(=O)NCC(=O)N[C@@H](C)C(=O)N[C@@H](C)C(=O)N[C@@H](C)C(=O)N[C@@H](C)C(=O)N[C@@H](CC(C)C)C(=O)N[C@@H](C)C(=O)N[C@@H](CCCCN)C(N)=O | membrane binding, stopped-flow FRET | POPC vesicles | room temperature, extrapolated from POPC/POPG | 4700
C[C@H](NC(=O)[C@H](CCC(N)=O)NC(=O)[C@H](C)NC(=O)[C@H](CCCCN)NC(=O)[C@H](CCC(N)=O)NC(=O)[C@H](C)NC(=O)[C@H](CCCCN)NC(=O)[C@H](CCC(N)=O)NC(=O)[C@H](C)NC(=O)[C@H](CCC(N)=O)NC(=O)[C@H](CCCCN)NC(=O)[C@H](C)NC(=O)[C@H](CCC(N)=O)NC(=O)[C@H](CCCCN)NC(=O)[C@H](C)NC(=O)[C@H](CCC(N)=O)NC(=O)[C@H](C)NC(=O)[C@H](CCCCN)NC(=O)[C@H](CCC(N)=O)NC(=O)[C@H](C)NC(=O)[C@H](CCCCN)NC(=O)[C@H](CO)NC(=O)[C@H](Cc1ccc(O)cc1)NC(=O)CNC(=O)CNC(=O)CN)C(=O)N[C@@H](CCCCN)C(=O)N[C@@H](CCC(N)=O)C(=O)N[C@@H](C)C(=O)N[C@@H](CCCCN)C(=O)N[C@@H](CCC(N)=O)C(=O)O | binding, SPR Langmuir fit | rVλ6Wil fibrils | pH 7.4 | 0.0037

A few entries again:
SMILES | assay | test system | setting | Kd [µM]
CC(C)C[C@H](NC(=O)CN)C(=O)NCC(=O)N[C@@H](CCCCN)C(=O)N[C@@H](CC(C)C)C(=O)N[C@@H](CC(C)C)C(=O)N[C@@H](Cc1c[nH]cn1)C(=O)N[C@@H](C)C(=O)N[C@@H](C)C(=O)N[C@@H](CCCCN)C(=O)N[C@@H](CCCCN)C(=O)N[C@@H](CC(C)C)C(=O)NCC(=O)N[C@@H](CCCCN)C(=O)N[C@@H](C)C(=O)N[C@@H](Cc1c[nH]c2ccccc12)C(=O)N[C@@H](CC(C)C)C(=O)NCC(=O)N[C@@H](CCC(=O)O)C(=O)N[C@@H](CC(C)C)C(=O)N[C@@H](CC(C)C)C(=O)N[C@@H](C)C(=O)N[C@@H](C)C(=O)O | membrane binding, stopped-flow FRET | POPC vesicles | room temperature, extrapolated from POPC/POPG | 1100
